Results collected from several papers.
Parts stem from different laboratories: compare values within a part only.

Series 1 — method: RNA Bind-n-Seq; form: RNA; medium: in vitro; tested at: 200 nM; setting: whole 134-nt RNA, ends assumed; together with: 150 mM LiCl; reference: input library; reading: higher = stronger binding; library: 7-deaza-guanosine replaces G
Target: Ras GTPase-activating protein-binding protein 1, full length (G3BP1, Homo sapiens, UniProt Q13283)
Chain of UniProt Q13283 (whole entry, looked up): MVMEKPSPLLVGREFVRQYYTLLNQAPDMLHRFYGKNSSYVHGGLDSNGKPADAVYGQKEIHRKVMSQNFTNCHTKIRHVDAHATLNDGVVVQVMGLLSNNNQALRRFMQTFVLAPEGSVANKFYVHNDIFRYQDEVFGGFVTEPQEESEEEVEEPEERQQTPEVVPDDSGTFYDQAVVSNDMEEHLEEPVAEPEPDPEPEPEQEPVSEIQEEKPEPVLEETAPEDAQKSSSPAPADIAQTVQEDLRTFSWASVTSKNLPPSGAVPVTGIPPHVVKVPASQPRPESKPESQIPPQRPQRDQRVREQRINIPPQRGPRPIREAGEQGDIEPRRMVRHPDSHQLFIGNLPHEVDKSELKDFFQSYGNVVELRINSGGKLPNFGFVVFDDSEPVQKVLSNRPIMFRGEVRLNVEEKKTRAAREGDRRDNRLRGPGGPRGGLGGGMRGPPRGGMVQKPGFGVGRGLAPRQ
Constant ends, left off below: GGGAGUUCUACAGUCCGACGAUC … UGGAAUUCUCGGGUGUCAAGG
Oligonucleotide | log2 enrichment
AGUCCUGUGCUACACAUCGUAUGUACCGAAUCGGGCCCCCGGCCCCCGGCCCCCGGGGAAAGUAUUAUGUUACGCCGUUCGGAUCUGCAC | 0.327
UCCUGUGCUACACAUCGUAUGUACCGAAUCGGGGUUUUUUGGUUUUUUGGUUUUUUGGGAAAGUAUUAUGUUACGCCGUUCGGAUCUGCA | 0.29
ACCAUGCAGGUGGGCAUCUUUGGGAAGUGGGGCAAGGGGGGGAUAGGGAGGGGGGUAACACUUUGGGAAAAAGUGGUCCCAGGUCGUUUC | 0.379
UGAACAGCUCUGCGCUUUUUGUUACUGUGGGGAAAAAAGUUCCUUAGGACAAGGAGACUUAAAACAAUUCAGAAUAACGCCUGGAUUUAU | -2.02
CUGUGCUACACAUCGUAUGUACCGAAUCGGGGAAAAAGGGGAAAAAAAGGGGAAAAAGGGGAAAGUAUUAUGUUACGCCGUUCGGAUCUG | 0.609
CCUCAAGUCCUGUGCUACACAUCGUAUGUACCGAAUCGGGCCGGGCCGGCCGGAAAGUAUUAUGUUACGCCGUUCGGAUCUGCACUUCCA | 0.918
GGCAAGAGGAGGAACGACGUAGAAGAGAGGAAGAGAUGAUGAUUCGUCAACGUGAGAUGGAAGAACAAAUGAGGCGCCAAAGAGAGGAAA | 1.1
UCCUGUGCUACACAUCGUAUGUACCGAAUCGGGGUUUUUGGGGUUUUUGGGUUUUUGGGAAAGUAUUAUGUUACGCCGUUCGGAUCUGCA | 0.922
CAAGUCCUGUGCUACACAUCGUAUGUACCGAAUCGGAAAAAAAGGUGGAAAAAGGAAAGUAUUAUGUUACGCCGUUCGGAUCUGCACUUC | -0.923
CCUGUGCUACACAUCGUAUGUACCGAAUCGGGGUUUUUUGGGGUUUUUUGGGUUUUUUGGGAAAGUAUUAUGUUACGCCGUUCGGAUCUG | 0.682
UGGGAGGUGGAUUUUGUUUAUUUUUUUAGCUCAUUUCCAGGGGUGGGAAUUUUUUUUUAAUAUGUGUCAUGAAUAAAGUUGUUUUUGAAC | -0.578

Series 2 — method: aptamer microarray, sandwich; form: DNA with 2'F-ANA; medium: in vitro; tested at: 200 nM; together with: Cy3 exosite-II aptamer, 400 nM; reading: higher = stronger binding; oligonucleotide: GGTTGGTGTGGTTGG
Target: Prothrombin, mature alpha-thrombin (F2, Homo sapiens, UniProt P00734)
Setting: whole 15-mer aptamer, many near background
Modification | mean fluorescence intensity [a.u.]
2'F-ANA at 2 4 5 6 8 11 13 14 15 | 50.1
2'F-ANA at 1 3 6 8 9 10 11 12 14 | 61.2
2'F-ANA at 2 3 4 6 7 8 10 12 15 | 280
2'F-ANA at 3 6 8 12 | 1460
2'F-ANA at 2 4 5 11 12 13 15 | 75.3
2'F-ANA at 1 2 6 9 15 | 164
2'F-ANA at 1 5 6 8 9 10 11 12 13 | 47.7
2'F-ANA at 3 7 8 12 13 | 1310
2'F-ANA at 3 11 12 13 | 1260
2'F-ANA at 2 4 6 9 11 13 14 15 | 66.3
2'F-ANA at 3 4 5 7 8 10 11 15 | 61.3
2'F-ANA at 3 5 8 9 11 13 14 15 | 68.9
2'F-ANA at 4 6 7 8 12 14 | 148
2'F-ANA at 1 5 6 8 10 11 12 14 | 53
2'F-ANA at 2 3 4 5 6 8 11 | 86.1
2'F-ANA at 3 6 7 10 11 12 13 | 536
2'F-ANA at 1 5 12 13 | 77.1
2'F-ANA at 1 2 3 4 5 8 10 11 14 15 | 53.8
2'F-ANA at 1 2 3 4 7 9 10 11 12 13 | 69.9
2'F-ANA at 2 4 5 7 9 10 11 14 | 50.5
2'F-ANA at 1 2 6 7 10 11 12 14 15 | 52.3
2'F-ANA at 3 5 7 11 12 13 14 15 | 65.5
2'F-ANA at 4 5 8 9 13 14 15 | 45.4
2'F-ANA at 1 3 9 10 11 15 | 77
2'F-ANA at 1 4 6 8 9 11 12 13 14 | 51.3

Series 3 — method: RNAcompete; form: RNA; medium: in vitro; tested at: 20 nM; setting: 7-mer, probes averaged, single round; reference: mean of 7-mers; reading: higher = stronger binding
Target: PABPC1L2, full length, GST fusion (mouse, UniProt A0ABA7IW68)
Residues (chain): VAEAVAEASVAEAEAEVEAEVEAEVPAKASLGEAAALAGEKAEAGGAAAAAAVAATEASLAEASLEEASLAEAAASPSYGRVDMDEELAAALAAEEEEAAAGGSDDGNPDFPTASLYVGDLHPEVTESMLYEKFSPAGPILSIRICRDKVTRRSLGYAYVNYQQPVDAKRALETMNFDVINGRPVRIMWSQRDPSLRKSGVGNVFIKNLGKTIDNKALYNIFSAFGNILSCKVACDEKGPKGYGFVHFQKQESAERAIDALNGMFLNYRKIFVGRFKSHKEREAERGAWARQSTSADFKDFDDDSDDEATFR
Oligonucleotide | 7-mer Z-score
AUACCUG | -0.325
UCGAGUC | -0.374
AUCGAGA | -0.00833
CGCUCCU | -0.228
AUUCCGA | -0.137
UUAAUCA | -0.217
UGAAGCU | -0.148
UCGUCAU | -0.403
ACCGGAG | 0.0189
GAUAGGU | -0.128
UUUCCAC | -0.19
AAUGUGC | -0.0482
CUCCAAA | 0.3
CCUAGUU | -0.398
UUCCAAU | -0.278
AGGCAAC | 0.24
CAUAGCA | -0.151
GUUCCAG | -0.141
GCUACGU | -0.195
UAAAGCU | 0.61
GAAAUAA | 1.57
UAGUCUU | -0.358
UUAUGCG | -0.2
AUCAGCG | -0.0772
AUGUCAA | -0.121

Series 4 — method: protein binding microarray; form: double-stranded DNA, one strand shown; medium: in vitro; tested at: not given; reference: not given; reading: higher = stronger binding
Target: Histone acetyltransferase KAT6A, both winged helices, GST fusion (KAT6A, Homo sapiens, UniProt Q92794, residues 1-181)
Setting: 8-mer, flanks averaged, mean of 2 arrays, mostly near background
Construct (chain): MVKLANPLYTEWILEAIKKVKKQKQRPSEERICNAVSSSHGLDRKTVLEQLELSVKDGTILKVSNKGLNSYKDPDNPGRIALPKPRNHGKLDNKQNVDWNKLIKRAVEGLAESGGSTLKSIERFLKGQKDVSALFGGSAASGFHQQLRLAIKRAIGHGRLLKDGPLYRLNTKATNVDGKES
Oligonucleotide | E-score
CCGGCCGC | 0.33
ACCAGGCG | -0.0753
AAAGGCTC | -0.00613
AATTCATC | -0.0465
CGTTCATA | 0.0426
GGCTTTGA | -0.0385
ACCCTGGG | -0.142
AGAATAAT | -0.121
CAATGTGC | -0.0625
CAGCCACC | -0.0757
ATGATACC | 0.00421
AATCCATT | -0.0575
AAACCTGA | -0.0971
ATAGTAGG | -0.0478
ATGGTGAG | -0.115
AGGTGCTG | -0.266
AAGCTTCG | -0.125
CTTGAGCA | -0.119
ATAGATCA | -0.0752
ATACCGTC | 0.202
CCCGAGGA | 0.0248
GCTCAAAC | 0.106
CTACCTAC | 0.0253
GACGATCA | -0.0496
CCCATTGC | -0.144

Series 5 — method: RNA Bind-n-Seq; form: RNA; medium: in vitro; tested at: 100 nM; reference: input RNA pool; reading: higher = stronger binding
Target: RING finger protein unkempt homolog, zinc fingers 1-6, SBP tag (UNK, Homo sapiens, UniProt Q9C0B0, residues 30-357)
Chain of UniProt Q9C0B0 (30-357, looked up): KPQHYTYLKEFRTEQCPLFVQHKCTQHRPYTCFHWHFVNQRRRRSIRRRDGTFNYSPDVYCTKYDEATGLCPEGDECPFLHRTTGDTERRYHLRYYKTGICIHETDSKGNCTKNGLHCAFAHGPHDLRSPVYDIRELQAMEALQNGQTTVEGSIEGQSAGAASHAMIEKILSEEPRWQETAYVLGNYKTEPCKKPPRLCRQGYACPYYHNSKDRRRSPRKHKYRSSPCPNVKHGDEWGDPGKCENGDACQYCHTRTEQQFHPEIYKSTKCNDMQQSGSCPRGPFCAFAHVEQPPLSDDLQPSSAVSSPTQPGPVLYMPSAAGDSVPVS
Setting: RNA with constant flanks, vertebrate orthologous sites, ends assumed
Constant ends, left off below: GGGAGUUCUACAGUCCGACGAUC … CAACAGAGGAUUGAGCAUCA
Oligonucleotide | bound/input enrichment
CCCUCUUAAUCCCAUAUCUUCUGUUUCAUAAUGCUGAAGUCAUAUCUUCAAUUACUCUAUUAGUGACCUUAUUUUAAUUUUAGAGAACCCUUCAGUAUGGAUACUGUGAGCUGAAAUGGA | 1.39 ratio
GCAUACCCCAUCACUGUGAUAUUUAAAAUAUGCACAGUCCUAAUUCUUUCUAAAUGACCCUAUUGUUUUUCUAGCUGUAUCUUUGUAUCUCAUACUGUUAUUUAUCAGUUUUGUUCCCCA | 1.77 ratio
GCAAUGAAAAAGCAUCCCUUCUCCCAGCCCCCUUUUCACUAGGAGAUACAAACGUUACCAUAGAAGAGCAAUUAAACUCAGUAAAUUUAUCUUUUCAGGAUGAUCCAGACUCCAGUACCA | 1.23 ratio
CUCCCUCCCAGGACUGAGCAGUGGGGCCUGGGCCCACUGGCCACAUCAGCCAGGCCAUUUUAGCUCCUUUUUUUUUUUUUUUUUAAACCGUGACCUUGUUAUCCUGUAUAUAAGUGGAGA | 2.96 ratio
CCAAAAUUUUAACCAAGAAUCUGAAGGUAGAAAUACAGGACCAUGGUUAUCUUCCUCACUUAGAAAUAGAUGCACACCUUUGUUCUCUAGAAGGAGGCGAGAGGGACGAGAUGAAUCUUC | 0.88 ratio
UGAAUAGUAGUAUAGAAGAAACAGUUGUCUUCCUUUAUCUUUUAUCCUCUAGCUAAUAGCUAGUCUACUUUUUAAAAUUUCACACUUUACUGCUCUUUGAAUUGAUAAUUCCAAUUCAAU | 0.613 ratio
GCAUGCACAUGCCGCUGUCACCAAAAGCAACUGCCGUCUUCAAAAUCUCCAGUAGCCUUCUUAGGAUUCUCUCCCUCCUUCCCUUCUGUUCCCCCGAUGCUUUAAAUGAUUAGAAGUCCU | 1.3 ratio
ACGUUUUGACAUCAAGUUCACCAUCAAAACCAAGUCAUGACCUUAGCUGUGAAAAUAGCUUUUAUUCUGCCCAUUUCAAAACACAAUAAUUUAGACGAAUAAACGGAGACGAGUGCAAAU | 1.08 ratio
GAAAAUGGCUUCUGCUCCAUUAAAAAAUAAAAAUUGUCCACUAAAUAUAAAACUCCUUAAUAGGUAUUUUUGAAAUUAAAAUCUUUAAAUUUUAUAAAUCAGCUCUUGCCACUUCACAAC | 2.04 ratio
GUGAGGGUCUACUGACCACUCACUGUCAUGUCUGGUAUCUGUAAACACUCUUUUCGUUCUUAGUCUUUUUCUUGUAUAAUUGAUGUUCUUUAAAAUUGUUAAUGUAUAACAGGGCUUAUG | 1.92 ratio
GUACUACCUGUGCGAAUCUCACAACACUGAAUGCAAAGUAGCAAUUUUCAUAGUCACAGUUAGGUAGCUUUAGGGCAGUAUUGCCAUGGUUUUACUCAUAUGCAGGUUUUGAAAAUGUAC | 1.17 ratio

Repeated from above (series 4):
Oligonucleotide | E-score
CGTTCATA | 0.0426
GGCTTTGA | -0.0385
ACCCTGGG | -0.142
AGAATAAT | -0.121
CAATGTGC | -0.0625
CAGCCACC | -0.0757
ATGATACC | 0.00421
AATCCATT | -0.0575
AAACCTGA | -0.0971
ATAGTAGG | -0.0478
